{"data": "Measured values pooled from the literature", "note": "Numbered parts are unrelated; each lists some results of a single study. Changes are numbered by the printed parent chain."}
{"data": "Sample 1", "target": "Fragile X messenger ribonucleoprotein 1, C-terminal low-complexity region (Fmr1, Mus musculus, UniProt P35922)", "method": "RNA Bind-n-Seq", "molecule type": "RNA", "medium": "in vitro", "tested at": "200 nM", "setting": "whole 134-nt RNA, ends assumed", "together with": "150 mM LiCl", "relative to": "input library", "direction": "higher = stronger binding", "library": "7-deaza-guanosine replaces G", "shared flanks, not repeated": "GGGAGUUCUACAGUCCGACGAUC … UGGAAUUCUCGGGUGUCAAGG"}
{"Sequence": "CCUCAAGUCCUGUGCUACACAUCGUAUGUACCGAAUCGGUUUUUGGUGGAGGAAAGUAUUAUGUUACGCCGUUCGGAUCUGCACUUCCAG", "log2 enrichment": -0.012}
{"Sequence": "AGGAAAAUGUUUAUAGGAGGCCUUAGCUGGGACACUACAAAGAAAGAUCUGAAGGACUACUUUUCCAAAUUUGGUGAAGUUGUAGACUGC", "log2 enrichment": -1.44}
{"Sequence": "CACAGACAACACGCACCCACACAGACACAGAGGGAAGGGGUUGGGAUGGGGACAGGGUGCACAGCAGCGCGGGGUAGGACCCCAGCCCCU", "log2 enrichment": 0.00299}
{"Sequence": "UAACUUUAGAGGAGGAUCUGAUGGAUAUGGCAGUGGACGUGGAUUUGGGGAUGGCUAUAAUGGGUAUGGAGGAGGACCUGGAGGUGGCAU", "log2 enrichment": 0.18}
{"Sequence": "CCUCAAGUCCUGUGCUACACAUCGUAUGUACCGAAUCGGAGGGGAGGGGAGGAAAGUAUUAUGUUACGCCGUUCGGAUCUGCACUUCCAG", "log2 enrichment": -0.761}
{"Sequence": "GUCCUGUGCUACACAUCGUAUGUACCGAAUCAAACCCCCAAACCCCCCCAAAUUUAAAAAAGUAUUAUGUUACGCCGUUCGGAUCUGCAC", "log2 enrichment": 1.3}
{"data": "Sample 2", "target": "CCNB2, cyclin fold, Cln2 fusion (human)", "method": "yeast growth competition, sequencing", "medium": "yeast", "setting": "weak parent motif", "relative to": "not given", "direction": "higher = stronger binding", "starting sequence": "PKN2 docking peptide (human); VSAVQKLDFSDTM; partner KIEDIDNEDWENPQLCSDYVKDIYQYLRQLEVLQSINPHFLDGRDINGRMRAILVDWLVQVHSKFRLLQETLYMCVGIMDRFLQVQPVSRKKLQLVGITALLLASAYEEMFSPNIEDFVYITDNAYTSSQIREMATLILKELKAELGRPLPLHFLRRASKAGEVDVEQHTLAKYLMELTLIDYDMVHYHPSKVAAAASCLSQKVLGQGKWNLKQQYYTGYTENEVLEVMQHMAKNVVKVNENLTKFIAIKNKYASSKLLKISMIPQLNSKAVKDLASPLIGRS"}
{"Substitution": "VSAVQKLDKSDTM [F9K]", "normalised enrichment score": 0.0631}
{"Substitution": "VSAIQKLDFSDTM [V4I]", "normalised enrichment score": -0.0303}
{"Substitution": "VSAVQKLDFSDTK [M13K]", "normalised enrichment score": -0.0787}
{"Substitution": "VSAVQKLDFSNTM [D11N]", "normalised enrichment score": 0.24}
{"Substitution": "VSAVQKGDFSDTM [L7G]", "normalised enrichment score": -0.524}
{"Substitution": "VSAVQKLDFSDIM [T12I]", "normalised enrichment score": -0.103}
{"Substitution": "RSAVQKLDFSDTM [V1R]", "normalised enrichment score": 0.0812}
{"data": "Sample 3", "target": "Prothrombin, mature alpha-thrombin (F2, Homo sapiens, UniProt P00734)", "method": "aptamer microarray, sandwich", "molecule type": "DNA with 2'F-ANA", "medium": "in vitro", "tested at": "200 nM", "setting": "whole 15-mer aptamer, many near background", "together with": "Cy3 exosite-II aptamer, 400 nM", "direction": "higher = stronger binding", "sequence": "GGTTGGTGTGGTTGG"}
{"Modification": "2'F-ANA at 2 3 4 6 8 9 11 12 13 15", "mean fluorescence intensity": "491 a.u."}
{"Modification": "2'F-ANA at 2 4 5 7 8 11 12 13 15", "mean fluorescence intensity": "80.4 a.u."}
{"Modification": "2'F-ANA at 2 5 6 10 14", "mean fluorescence intensity": "49.3 a.u."}
{"Modification": "2'F-ANA at 1 2 3 4 7 10 13 14", "mean fluorescence intensity": "47.9 a.u."}
{"Modification": "2'F-ANA at 2 3 5 6 8 10", "mean fluorescence intensity": "55.1 a.u."}
{"Modification": "2'F-ANA at 1 2 3 6 7 9 10 12 13 15", "mean fluorescence intensity": "96.1 a.u."}
{"Modification": "2'F-ANA at 4 5 6 8 9 12 13 14", "mean fluorescence intensity": "46.6 a.u."}
{"Modification": "2'F-ANA at 1 3 4 7 10 11 13 14", "mean fluorescence intensity": "73.5 a.u."}
{"Modification": "2'F-ANA at 4 5 6 9 11 13", "mean fluorescence intensity": "53.2 a.u."}
{"Modification": "2'F-ANA at 1 2 3 5 6 8 15", "mean fluorescence intensity": "63.6 a.u."}
{"Modification": "2'F-ANA at 1 2 4 5 7 9 11 13 14 15", "mean fluorescence intensity": "145 a.u."}
{"data": "Further values, each from its own experiment"}
{"Substance": "PhoQ, residues 284 288 289 292 302 303 SACGEM", "target": "PhoP, residues 12 14 15 18 19 NMSFL (Escherichia coli, UniProt P23836)", "test": "Sort-seq, measured: YFP reporter", "test system": "E. coli", "conditions": "PhoQ-PhoP variant library, together with: 10 µM Mg2+", "how to read": "relative to: high Mg2+ state, higher = stronger signaling", "quantity": "fold induction", "result": 15.6}
